{"data": "Published values collected from several papers", "GPR35": "G-protein coupled receptor 35 (GPR35, Homo sapiens, UniProt Q9HC97)", "MED23 with ELF3": "Mediator of RNA polymerase II transcription subunit 23, with ELF3 (MED23, Homo sapiens, UniProt Q9ULK4)", "crk3 with CYC6": "crk3, with CYC6 (Leishmania mexicana, UniProt O15851)", "GRM2": "Metabotropic glutamate receptor 2 (GRM2, Homo sapiens, UniProt Q14416)", "note": "Lines come from different studies, so protocols differ. Numbers after ± are the reported error.", "UniProt Q14416, sequence (whole entry, looked up)": "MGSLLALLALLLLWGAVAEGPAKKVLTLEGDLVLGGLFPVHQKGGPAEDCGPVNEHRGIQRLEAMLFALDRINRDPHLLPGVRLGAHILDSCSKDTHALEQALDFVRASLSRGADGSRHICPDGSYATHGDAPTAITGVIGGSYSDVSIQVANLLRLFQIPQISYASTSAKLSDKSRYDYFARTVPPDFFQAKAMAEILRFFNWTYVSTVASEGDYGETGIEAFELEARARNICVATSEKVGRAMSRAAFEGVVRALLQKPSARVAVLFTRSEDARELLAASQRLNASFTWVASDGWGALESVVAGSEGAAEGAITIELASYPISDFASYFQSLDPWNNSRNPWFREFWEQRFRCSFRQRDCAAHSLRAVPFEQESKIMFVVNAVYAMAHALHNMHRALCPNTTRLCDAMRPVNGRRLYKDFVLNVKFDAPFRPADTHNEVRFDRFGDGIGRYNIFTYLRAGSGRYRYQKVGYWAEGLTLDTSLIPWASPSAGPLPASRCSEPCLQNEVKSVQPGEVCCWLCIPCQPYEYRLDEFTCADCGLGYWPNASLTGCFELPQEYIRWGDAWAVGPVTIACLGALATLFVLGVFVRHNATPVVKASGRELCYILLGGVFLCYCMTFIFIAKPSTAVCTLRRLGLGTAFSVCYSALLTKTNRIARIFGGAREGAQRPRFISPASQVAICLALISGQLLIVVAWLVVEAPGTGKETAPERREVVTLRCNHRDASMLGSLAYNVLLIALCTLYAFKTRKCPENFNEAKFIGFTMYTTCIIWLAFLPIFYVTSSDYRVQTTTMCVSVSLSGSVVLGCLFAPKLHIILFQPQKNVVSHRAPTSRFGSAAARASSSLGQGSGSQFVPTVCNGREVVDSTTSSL", "UniProt Q9HC97, sequence (whole entry, looked up)": "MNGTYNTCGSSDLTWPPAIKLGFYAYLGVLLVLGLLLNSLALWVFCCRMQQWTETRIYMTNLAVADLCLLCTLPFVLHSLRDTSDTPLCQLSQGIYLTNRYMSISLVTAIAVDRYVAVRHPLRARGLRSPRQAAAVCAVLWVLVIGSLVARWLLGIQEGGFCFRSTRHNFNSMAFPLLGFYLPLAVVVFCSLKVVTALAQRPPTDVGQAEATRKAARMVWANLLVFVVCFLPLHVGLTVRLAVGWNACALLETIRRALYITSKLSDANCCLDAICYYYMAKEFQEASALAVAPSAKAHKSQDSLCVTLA", "UniProt P49336, sequence (whole entry, looked up)": "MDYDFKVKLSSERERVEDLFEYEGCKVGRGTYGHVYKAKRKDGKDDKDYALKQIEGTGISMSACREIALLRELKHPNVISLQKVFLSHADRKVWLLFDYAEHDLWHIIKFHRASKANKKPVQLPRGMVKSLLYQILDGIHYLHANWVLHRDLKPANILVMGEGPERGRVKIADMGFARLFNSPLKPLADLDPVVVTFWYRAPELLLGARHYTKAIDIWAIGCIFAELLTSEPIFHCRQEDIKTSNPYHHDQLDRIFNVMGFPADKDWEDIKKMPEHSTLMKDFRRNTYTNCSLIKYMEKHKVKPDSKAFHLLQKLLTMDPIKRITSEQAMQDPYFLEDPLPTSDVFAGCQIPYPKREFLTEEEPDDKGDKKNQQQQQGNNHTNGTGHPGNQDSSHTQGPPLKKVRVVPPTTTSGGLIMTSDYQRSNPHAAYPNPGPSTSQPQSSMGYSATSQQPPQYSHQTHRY", "UniProt O94925, sequence (whole entry, looked up)": "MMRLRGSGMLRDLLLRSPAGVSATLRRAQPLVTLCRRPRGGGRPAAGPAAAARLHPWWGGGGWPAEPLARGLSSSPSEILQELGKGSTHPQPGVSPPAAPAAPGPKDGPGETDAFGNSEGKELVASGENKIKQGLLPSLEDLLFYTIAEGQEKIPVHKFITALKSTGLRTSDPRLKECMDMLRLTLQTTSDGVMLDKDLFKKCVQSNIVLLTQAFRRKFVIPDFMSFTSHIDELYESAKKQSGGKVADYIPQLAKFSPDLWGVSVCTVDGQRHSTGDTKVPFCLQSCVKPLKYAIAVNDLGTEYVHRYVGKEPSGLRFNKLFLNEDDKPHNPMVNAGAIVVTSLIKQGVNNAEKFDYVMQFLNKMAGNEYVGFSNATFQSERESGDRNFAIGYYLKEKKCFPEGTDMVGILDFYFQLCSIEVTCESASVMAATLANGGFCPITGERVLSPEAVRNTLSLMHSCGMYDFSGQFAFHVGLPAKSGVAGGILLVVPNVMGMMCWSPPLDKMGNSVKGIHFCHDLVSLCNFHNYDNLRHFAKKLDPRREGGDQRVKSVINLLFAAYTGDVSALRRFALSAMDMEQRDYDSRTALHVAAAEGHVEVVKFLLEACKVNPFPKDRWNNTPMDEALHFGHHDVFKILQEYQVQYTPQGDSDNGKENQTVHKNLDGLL"}
{"SMILES": "O=C(O)c1cc(O)ccc1O", "target": "GPR35", "test": "dynamic mass redistribution, agonist", "system": "HT-29", "endpoint": "maximal response", "value": "309 ± 19 pm"}
{"SMILES": "O=C(C=Cc1ccco1)c1cccc(O)c1", "target": "MED23 with ELF3", "test": "SEAP reporter gene, inhibitor", "conditions": "10 µM, 12 h", "endpoint": "inhibition", "value": "86%"}
{"SMILES": "O=C(Nc1cc(-c2ccccc2)n[nH]1)C1COc2ccccc2O1 (stereo not shown)", "target": "crk3 with CYC6", "test": "IMAP fluorescence polarisation", "conditions": "30 µM, with L. major CYC6", "endpoint": "inhibition", "value": "86%"}
{"SMILES": "COc1ccc(C=CC(=O)c2ccccc2O)cc1", "target": "MED23 with ELF3", "test": "SEAP reporter gene, inhibitor", "conditions": "10 µM, 12 h", "endpoint": "inhibition", "value": "90%"}
{"SMILES": "CCCCn1ccn2c(-c3ccc(NC4CCOCC4)c(Cl)c3)c(C)nc2c1=O", "target": "GRM2", "test": "agonist", "conditions": "no glutamate", "endpoint": "Emax", "value": "39%"}
{"SMILES": "O=C(C=Cc1ccc(O)cc1)c1cccc(O)c1", "target": "MED23 with ELF3", "test": "SEAP reporter gene, inhibitor", "conditions": "10 µM, 12 h", "endpoint": "inhibition", "value": "60%"}
{"SMILES": "CCCCn1ccn2c(-c3ccc(Oc4ccnc(C)c4)c(F)c3)c(C)nc2c1=O", "target": "GRM2", "test": "G protein activation, positive allosteric modulator", "conditions": "together with: glutamate at EC20", "how to read": "relative to: glutamate response", "endpoint": "Emax", "value": "277%"}
{"SMILES": "O=[N+]([O-])c1ccc(/C=N/Nc2nnc(N/N=C/c3ccc([N+](=O)[O-])cc3)c3ccccc23)cc1", "target": "iron(III)", "test": "UV-Vis titration", "conditions": "stoichiometry 2", "endpoint": "binding constant", "value": "1.5e+09 M⁻²"}
{"SMILES": "O=C(C=Cc1ccc(Cl)cc1)c1cccc(O)c1", "target": "MED23 with ELF3", "test": "SEAP reporter gene, inhibitor", "conditions": "10 µM, 12 h", "endpoint": "inhibition", "value": "80%"}
{"SMILES": "N#Cc1c(-c2ccc(OCC3CC3)c(Cl)c2)ccn2c(CC(F)(F)F)cnc12", "target": "GRM2", "test": "GTPγS binding, positive allosteric modulator", "conditions": "together with: EC20 glutamate", "how to read": "relative to: control glutamate response", "endpoint": "Emax", "value": "209%"}
{"SMILES": "O=C1Nc2ccc(S(=O)(=O)Nc3ccccc3)cc2C1=C1CCCC1", "target": "CDK8 (Homo sapiens, UniProt P49336)", "test": "enzyme activity, inhibitor", "conditions": "10 µM", "endpoint": "inhibition", "value": "93%"}
{"SMILES": "COc1ccc(CNc2ccc(-c3ccn4c(CC5CC5)nnc4c3C(F)(F)F)cc2F)cn1", "target": "GRM2", "test": "GTPγS binding, positive allosteric modulator", "conditions": "together with: EC20 glutamate", "how to read": "relative to: control glutamate response", "endpoint": "Emax", "value": "262 ± 21%"}
{"SMILES": "O=C(C=Cc1ccc(Cl)cc1)c1ccccc1O", "target": "MED23 with ELF3", "test": "SEAP reporter gene, inhibitor", "conditions": "10 µM, 12 h", "endpoint": "inhibition", "value": "80%"}
{"SMILES": "FC(F)(F)c1c(-c2ccc(NC3CCOCC3)c(Cl)c2)ccn2c(CC3CC3)nnc12", "target": "GRM2", "test": "GTPγS binding, positive allosteric modulator", "conditions": "together with: EC20 glutamate", "how to read": "relative to: control glutamate response", "endpoint": "Emax", "value": "353%"}
{"SMILES": "COc1ccc(C=CC(=O)c2cccc(O)c2)c2ccccc12", "target": "MED23 with ELF3", "test": "SEAP reporter gene, inhibitor", "conditions": "10 µM, 12 h", "endpoint": "inhibition", "value": "70%"}
{"SMILES": "CN1CCN(c2nn3c(-c4ccc(F)cc4)nnc3c3ccccc23)CC1", "target": "iron(III)", "test": "UV-Vis titration", "conditions": "stoichiometry 1", "endpoint": "binding constant", "value": "< 10 M⁻¹"}
{"SMILES": "CCC(=O)N1N=C(c2cccc(O)c2)CC1c1ccc(Cl)cc1 (stereo not shown)", "target": "MED23 with ELF3", "test": "SEAP reporter gene, inhibitor", "conditions": "10 µM, 12 h", "endpoint": "inhibition", "value": "42%"}
{"SMILES": "O=C(O)C(=O)Cc1ccc(O)cc1", "target": "GPR35", "test": "β-arrestin translocation, agonist, Tango reporter", "system": "U2OS GPR35-bla", "endpoint": "EC50", "value": "inactive"}
{"SMILES": "Clc1nnc(N/N=C/c2ccc(Br)cc2)c2ccccc12", "target": "iron(III)", "test": "UV-Vis titration", "conditions": "stoichiometry 1", "endpoint": "binding constant", "value": "3200 M⁻¹"}
{"SMILES": "Cc1ccc(Oc2ccc(-c3ccn4c(CC5CC5)nnc4c3C(F)(F)F)cc2F)c(C)n1", "target": "GRM2", "test": "GTPγS binding, positive allosteric modulator", "conditions": "together with: EC20 glutamate", "how to read": "relative to: control glutamate response", "endpoint": "Emax", "value": "362 ± 84%"}
{"SMILES": "Cc1cc(NC(=O)c2ccc(Oc3ccccc3)cc2)[nH]n1", "target": "crk3 with CYC6", "test": "IMAP fluorescence polarisation", "conditions": "30 µM, with L. major CYC6", "endpoint": "inhibition", "value": "7%"}
{"SMILES": "Clc1c(-c2ccc(Oc3ccccc3)cc2)ccn2c(CC3CC3)nnc12", "target": "GRM2", "test": "GTPγS binding, positive allosteric modulator", "conditions": "together with: EC20 glutamate", "how to read": "relative to: control glutamate response", "endpoint": "Emax", "value": "225 ± 12%"}
{"SMILES": "O=[N+]([O-])c1ccc(/C=N/Nc2nnc(N/N=C/c3ccc([N+](=O)[O-])o3)c3ccccc23)o1", "target": "iron(III)", "test": "UV-Vis titration", "conditions": "stoichiometry 2", "endpoint": "binding constant", "value": "5.5e+09 M⁻²"}
{"SMILES": "FC(F)(F)c1c(-c2ccc(N3CCNCC3)c(Cl)c2)ccn2c(CC3CC3)nnc12", "target": "GRM2", "test": "GTPγS binding, agonist, radiometric", "conditions": "cell membranes", "endpoint": "Emax", "value": "68%"}
{"SMILES": "CC(=O)NC(Cc1c[nH]c2ccccc12)C(=O)NC(CCC(=O)C=[N+]=[N-])C(=O)O (stereo not shown)", "target": "GLS (Homo sapiens, UniProt O94925)", "test": "enzyme activity, inhibitor, [3H]-glutamine radiometric", "conditions": "concentration not given, intact compound", "endpoint": "activity class", "value": "inactive"}
